# Experimental data from different studies.
# Each line is one published result; not all experiments were run side by side. Several values in a cell are separate wells, animals, samples, runs or records. Numbers after ± are the reported error.
SMILES,tested on,test,test system,setting,scale,measurement,value
CN(C)C(=O)Cn1cc(-c2ccc(-c3nnc4ccccn34)cc2)cn1,mouse hepatitis virus,viral replication,nanoluciferase reporter,1 µM,,inhibition,44%
Cc1ccc(CSc2ncnc3c2ccn3[C@@H]2O[C@H](CO)[C@@H](O)[C@H]2O)cc1,Toxoplasma gondii,[3H]uracil incorporation,"human fibroblasts, RH wild type",50 µM,,survival,0%
O=C(O)c1ccc(-c2coc3ncc(-c4ccccc4)cc23)cc1Cl,mouse hepatitis virus,viral replication,nanoluciferase reporter,1 µM,,inhibition,66%
Nc1ncnc2c1ncn2[C@@H]1O[C@@H]2COP(=O)(O)O[C@H]3[C@@H](O)[C@H](n4cnc5c(=O)[nH]cnc54)O[C@@H]3COP(=O)(O)O[C@H]2[C@H]1O,West Nile virus,"RNA sequencing Reactome analysis, refers to: Mitotic Spindle Checkpoint (R-HSA-69618)",HFF-1,"concentration not given, upregulated pathways, added: West Nile virus infection",relative to: WNV-infected without compound,fold enrichment,4.5
CCc1ccc(Sc2cc(C(=O)NCCCN3CCCC(C)C3)c3ccccc3n2)cc1 (centres unmarked),Vero-E6,CellTiter-Glo ATP,,"concentration not given, 72 h, first round 5-point","relative to: DMSO 0%, hyamine -100%, more negative, more toxic",cytotoxicity efficacy,0%
OC[C@H]1O[C@@H](n2ccc3c(O)ncnc32)[C@H](O)[C@@H]1O,Toxoplasma gondii,[3H]uracil incorporation,"human fibroblasts, adenosine kinase-deficient",5 µM,,parasite survival,100%
CC(C)(C#N)c1cc(Cn2cncn2)cc(C(C)(C)C#N)c1,human coronavirus OC43,virus-induced cell killing,MRC-5,screen,,maximum inhibition,9.83%
C[C@H]1CCC/C=C/[C@@H]2C[C@H](O)C[C@H]2[C@H](O)/C=C/C(=O)O1,Toxoplasma gondii,parasite growth,"HFF, bradyzoite, alkaline-induced",,,EC90,0.215 µM
Nc1nc2c(ncn2COCCO)c(=O)[nH]1,human alphaherpesvirus 2,"viral replication, RT-qPCR",resistant to compound,,,IC50,74.5 ± 4.19 µM
Nc1c([N+](=O)[O-])oc2ccc3ccccc3c12,Mycobacteroides abscessus,REMA,ATCC 19977,,,MIC90,> 32 µg/mL
C[C@H]1COC2(CCN(c3nc(=O)c4cc(C(F)(F)F)cc([N+](=O)[O-])c4s3)CC2)O1 (racemic),human coronavirus OC43,virus-induced cell killing,MRC-5,maximum over 10 doses,,maximum inhibition,0%
OB(O)c1csc2ccccc12,Staphylococcus aureus,,"wild type, Galleria mellonella larvae",concentration not given,,time of death,24 h and 36 h and 6 h and 30 h and 12 h and 18 h
c1ccc2c(c1)[I+]c1ccccc1-2,Toxoplasma gondii,,,glutamine-induced bradyzoites,,EC90,0.112 µM
CS(=O)(=O)CCCn1c(Cn2c(=O)n(CC(F)(F)F)c3ccncc32)cc2cc(Cl)ccc21,respiratory syncytial virus,RT-qPCR,"hospitalized infants 1-24 months, nasal swab","oral, 2, 1.5 or 1 mg/kg daily, day 6, low dose by age cohort",relative to: baseline,LS mean viral load change,-3.82 log10 copies/mL
CN1C(=O)[C@@H](N2CCc3c(nn(Cc4ccccc4)c3Br)C2=O)COc2ccccc21,mouse hepatitis virus,viral replication,nanoluciferase reporter,1 µM,,inhibition,44%
COC(=O)[C@@H]1[C@@H](c2ccccc2)[C@]2(c3ccc(OC)cc3)Oc3cc(OC)cc(OC)c3[C@@]23N=C(C)N[C@@]13O,Hepatitis E virus,viral replication,"HepG2 HEV-3 replicon, genotype 3 wild boar isolate",48 h,,EC50,0.00252 µM
CN(c1ccc(NC(=O)c2cccc(C(=N)N)c2)cc1OCc1ccc(C(=N)N)cc1)S(=O)(=O)Cc1ccccc1,Trypanosoma brucei,western blot,,500 and 1000 nM,,polymerised tubulin amount,decreased
N=C(N)NCCC[C@H](NC(=O)[C@H](Cc1c[nH]c2ccccc12)NC(=O)[C@H](CCCNC(=N)N)NC(=O)[C@H](Cc1c[nH]c2ccccc12)NC(=O)[C@H](Cc1c[nH]c2ccccc12)NC(=O)[C@H](Cc1c[nH]c2ccccc12)NC(=O)[C@H](CCCNC(=N)N)NC(=O)[C@H](Cc1c[nH]c2ccccc12)NC(=O)[C@@H](N)CCCNC(=N)N)C(=O)N[C@@H](Cc1c[nH]c2ccccc12)C(N)=O,Candida albicans,broth microdilution,"14936, RPMI 1640-MOPS","48 h, 30 °C",,MIC,8 µM
CC[C@H](C)[C@H](NC(=O)[C@H](C)NC(=O)[C@H](CCCCN)NC(=O)[C@H](CC(C)C)NC(=O)[C@H](C)NC(=O)[C@@H](NC(=O)[C@H](Cc1c[nH]cn1)NC(=O)[C@H](CC(C)C)NC(=O)[C@@H](NC(=O)[C@@H](NC(=O)[C@H](CCCCN)NC(=O)[C@H](C)NC(=O)[C@H](C)NC(=O)[C@H](CO)NC(=O)[C@H](CCCCN)NC(=O)[C@H](Cc1ccccc1)NC(=O)[C@@H](NC(=O)[C@H](CCCCN)NC(=O)[C@H](CC(C)C)NC(=O)[C@H](Cc1ccccc1)NC(=O)[C@H](CO)NC(=O)[C@H](CCCCN)NC(=O)[C@H](Cc1c[nH]c2ccccc12)NC(=O)[C@H](CCCCN)NC(C)=O)[C@@H](C)O)[C@@H](C)O)C(C)C)[C@@H](C)O)C(=O)N[C@@H](CO)C(=O)N[C@@H](CO)C(N)=O,Acinetobacter baumannii,,ATCC 19606,,,MIC range,2 µg/mL
CNC(=O)c1ccc(Nc2ncc(C(F)(F)F)c(NCc3nccnc3N(C)S(C)(=O)=O)n2)cc1,mouse hepatitis virus,viral replication,nanoluciferase reporter,1 µM,,inhibition,19%
O=C(N[C@H](CO)[C@H](O)c1ccc([N+](=O)[O-])cc1)C(Cl)Cl,human coronavirus OC43,virus-induced cell killing,MRC-5,screen,,maximum inhibition,13.6%
O=C(Nc1cc(F)c(F)c(F)c1)c1ccc(F)c(S(=O)(=O)N2CCC(O)CC2)c1,hepatitis B virus,"viral replication, strand-preferential qPCR, refers to: positive-strand HBV DNA","HepDES19 cells, genotype D",3 days,,EC50,0.73 ± 0.2 µM
N#CCNC(=O)c1ccc(-c2ccnc(Nc3ccc(N4CCOCC4)cc3)n2)cc1,human coronavirus OC43,virus-induced cell killing,MRC-5,maximum over 10 doses,,maximum inhibition,0%
CC[C@H]1CN2CCc3cc(OC)c(OC)cc3[C@@H]2C[C@@H]1C[C@H]1NCCc2cc(OC)c(OC)cc21.Cl.Cl,Mus musculus,"gene silencing, high-content imaging",LDR reporter GFP cells,retest run 2,,maximal activity,51%
Cc1cc(Nc2cc(N3CCN(C)CC3)nc(Sc3ccc(NC(=O)C4CC4)cc3)n2)[nH]n1,human coronavirus OC43,virus-induced cell killing,MRC-5,maximum over 10 doses,,maximum inhibition,0%
CO[C@H]1/C=C/O[C@@]2(C)Oc3c(C)c(O)c4c(O)c(c(/C=N/N5CCN(C)CC5)c(O)c4c3C2=O)NC(=O)/C(C)=C\C=C\[C@H](C)[C@H](O)[C@@H](C)[C@@H](O)[C@@H](C)[C@H](OC(C)=O)[C@@H]1C,Mycobacteroides abscessus,REMA,ATCC 19977,,,MIC90,> 32 µg/mL
CO[C@H]1C[C@@H]2CC[C@@H](C)[C@@](O)(O2)C(=O)C(=O)N2CCCC[C@H]2C(=O)O[C@H]([C@H](C)C[C@@H]2CC[C@@H](O)[C@H](OC)C2)CC(=O)[C@H](C)/C=C(\C)[C@@H](O)[C@@H](OC)C(=O)[C@H](C)C[C@H](C)/C=C/C=C/C=C/1C,human coronavirus OC43,virus-induced cell killing,MRC-5,maximum over 10 doses,,maximum inhibition,0%
COc1ccc2c(ccc3oc([N+](=O)[O-])c(OC)c32)c1,Mycobacteroides abscessus,REMA,ATCC 19977,,,MIC90,> 32 µg/mL
OC[C@H]1O[C@@H](n2ccc3c(SCc4ccc(Cl)cc4Cl)ncnc32)[C@H](O)[C@@H]1O,Toxoplasma gondii,[3H]uracil incorporation,"human fibroblasts, RH wild type",25 µM,,survival,12.9%
CNC[C@H](O)[C@@H](O)[C@H](O)[C@H](O)CO.[O]=[Sb](=[O])[OH],Leishmania major,,BALB/c mouse,"topical, dose not given, 7 days, unit not given",relative to: PBS,lesion size difference,4.99
COc1ccc([C@@]23Oc4cc(OC)cc(OC)c4[C@@]24N=C(C)N[C@@]4(O)[C@H](C(=O)N(C)OC)[C@H]3c2ccccc2)cc1,Hepatitis E virus,viral replication,"HepG2 HEV-1 replicon, genotype 1",48 h,,EC50,0.0004 µM
Cn1c(=O)ccc2ccc(F)c(CCNC[C@H]3CN(c4cnc5c(n4)NC(=O)CO5)C(=O)O3)c21,Stenotrophomonas maltophilia,,,,,MIC90,0.25 µg/mL
CN(C)CCNC(=O)c1ccc2c(c1)C1(CCN(CC3CC3)C1)CN2Cc1ccccc1 (centres unmarked),Vero-E6,CellTiter-Glo ATP,,"concentration not given, 72 h, second round 5-point","relative to: DMSO 0%, hyamine -100%, more negative, more toxic",cytotoxicity efficacy,0%
CCCCCCCCCC(=O)N[C@@H](Cc1c[nH]c2ccccc12)C(=O)N[C@H](CC(N)=O)C(=O)N[C@@H](CC(=O)O)C(=O)N[C@@H]1C(=O)NCC(=O)N[C@@H](CCCN)C(=O)N[C@@H](CC(=O)O)C(=O)N[C@H](C)C(=O)N[C@@H](CC(=O)O)C(=O)NCC(=O)N[C@H](CO)C(=O)N[C@@H]([C@H](C)CC(=O)O)C(=O)N[C@@H](CC(=O)c2ccccc2N)C(=O)O[C@@H]1C,"Staphylococcus, coagulase-negative",,,,,MIC90,0.5 µg/mL
COc1ncc(-c2ccc3nccc(-c4ccnnc4)c3c2)cc1NS(=O)(=O)c1ccc(F)cc1F,human coronavirus OC43,virus-induced cell killing,MRC-5,screen,,maximum inhibition,2.93%
Fc1ccc(C(OCCN2CCN(CCCc3ccccc3)CC2)c2ccc(F)cc2)cc1,Toxoplasma gondii,parasite growth,"HFF, bradyzoite, alkaline-induced",,,EC90,49700 µM
COc1ccc2ccc3oc([N+](=O)[O-])cc3c2c1Br,Salmonella enterica,REMA,,,,MIC90,< 0.25 µg/mL
Cc1ccc2c(=O)c3cccc(CC(=O)O)c3oc2c1C,human coronavirus OC43,virus-induced cell killing,MRC-5,maximum over 10 doses,,maximum inhibition,0%
